# Experimental data pooled from the literature.
# Lines come from different studies, so protocols differ. ± gives the spread as reported.
Compound,assay,system,setting,Cmax
CCc1c2c(nc3ccc(O)cc13)-c1cc3c(c(=O)n1C2)COC(=O)[C@]3(O)CC,,"human patients, plasma","intravenous, 32 mg/m^2 of parent drug",98 ng/mL
O=C(CCc1ccc(CNC(C(=O)OC2CCCC2)C2CCCCC2)cn1)NO (stereo not shown),,"human, plasma","oral, 40 mg once daily, day 7, geometric mean",284 ng/mL
CC(=O)Nc1ccc(C(N)=O)c(F)c1,,"human, plasma","oral, 25 mg",30.7 µg-eq/L
CCc1cc(Nc2nc(-c3ccc(-n4cnc(C)c4)c(F)c3)cs2)c(C)cc1C,,"human, both sexes, plasma","oral, 400 mg once daily, day 14, multiple dose, geometric mean",1480 ng/mL
[2H]C([2H])([2H])NC(=O)c1ccc(N2C(=S)N(c3ccc(C#N)c(C(F)(F)F)c3)C(=O)C2(C)C)cc1F,,"healthy male human, plasma","oral, 160 mg, high-fat meal, single dose",4830 ± 1160 ng/mL
CC[C@H](C)[C@H](NC(=O)[C@H](CC(C)C)NC(=O)[C@H](Cc1c[nH]c2ccccc12)NC(=O)[C@H](C)NC(=O)[C@@H](NC(=O)[C@H](Cc1ccccc1)NC(=O)[C@H](CC(=O)O)NC(=O)[C@H](CCCNC(=N)N)NC(=O)[C@H](C)NC(=O)[C@H](C)NC(=O)[C@H](CC(C)C)NC(=O)[C@H](C)NC(=O)[C@H](CC(=O)O)NC(=O)[C@H](CC(C)C)NC(=O)[C@@H](NC(=O)[C@@H](NC(=O)[C@H](C)NC(=O)[C@H](CC(C)C)NC(=O)[C@H](CCC(=O)O)NC(=O)[C@H](CO)NC(=O)[C@H](CO)NC(=O)[C@H](Cc1ccccc1)NC(=O)[C@@H](NC(=O)CNC(=O)[C@H](CCC(=O)O)NC(=O)CNC(=O)[C@@H](N)Cc1c[nH]cn1)[C@@H](C)O)[C@@H](C)O)[C@@H](C)CC)[C@@H](C)CC)C(=O)N[C@@H](C)C(=O)N[C@H](C(=O)N[C@@H](CCCCN)C(=O)N[C@H](C(=O)N[C@H](C(=O)N[C@@H](CC(=O)O)C(=O)N[C@@H](CCCCN)C(=O)O)[C@@H](C)O)[C@@H](C)CC)[C@@H](C)O,immunoaffinity LC-MS/MS,"healthy human subjects, plasma","subcutaneous, 10 mg once weekly, day 36 after 6 doses, steady state, geometric mean",5.32 nM
CCCOc1ccc(S(N)(=O)=O)cc1-c1nc2c(CCC)nn(C)c2c(=O)[nH]1,,"healthy male humans, plasma","oral, 200 mg of udenafil, together with: dapoxetine 60 mg",360 ± 110 ng/mL
CCCCCCCCCC(O)CC(=O)CCc1ccc(O)c(OC)c1 (stereo not shown),,"healthy Indonesian humans, plasma","oral, 2 g red ginger suspension, single dose",160 ng/mL
O=C(O[C@@H]1Cc2c(O)cc(O)cc2O[C@@H]1c1cc(O)c(O)c(O)c1)c1cc(O)c(O)c(O)c1,,"human, male, plasma","oral, 135 mg, catechin-rich beverage",234 ± 77.6 nM
Cc1nc(C)c(C=[N+]([O-])C(C)(C)C)nc1C,,"healthy human, both sexes, serum","oral, 1200 mg twice daily, 7 days",25300 ng/mL
[2H]C([2H])([2H])Oc1cc2c(cc1OC([2H])([2H])[2H])[C@H]1CC(=O)[C@H](CC(C)C)CN1CC2,,"human CYP2D6 extensive metabolizers, plasma","oral, 25 mg, fasted, geometric mean",0.27 ng/mL
Cc1[nH]nc2c1N=C(c1ccccc1Cl)c1cnc(N3CCOCC3)cc1N2,measured: total radioactivity,"human male, plasma","oral, 10 mg",84.9 ng eq/mL
CC(=O)N[C@H](CC(=O)O)C(=O)N[C@H](Cc1c[nH]c2ccccc12)C(=O)N[C@H](Cc1ccccc1)C(=O)N[C@H](CCCCN)C(=O)N[C@H](C)C(=O)N[C@H](Cc1ccccc1)C(=O)N[C@H](Cc1ccc(O)cc1)C(=O)N[C@H](CC(=O)O)C(=O)N[C@H](CCCCN)C(=O)N[C@@H](C(=O)N[C@H](C)C(=O)N[C@H](CCC(=O)O)C(=O)N[C@H](CCCCN)C(=O)N[C@H](Cc1ccccc1)C(=O)N[C@H](CCCCN)C(=O)N[C@H](CCC(=O)O)C(=O)N[C@H](C)C(=O)N[C@H](Cc1ccccc1)C(N)=O)C(C)C,,"human, statin-treated high-risk CHD, male, plasma","oral, 500 mg daily, day 1, 0 to 2 h, mean, detected subjects only",23.4 ng/mL
O=C(CCc1ccc(CNC(C(=O)O)C2CCCCC2)cn1)NO (stereo not shown),,"human, plasma","oral, 20 mg once daily, day 1, geometric mean",78 ng/mL
CC[C@H](C)[C@H](NC(=O)[C@H](CC(C)C)NC(=O)[C@H](Cc1c[nH]c2ccccc12)NC(=O)[C@H](C)NC(=O)[C@@H](NC(=O)[C@H](Cc1ccccc1)NC(=O)[C@H](CC(=O)O)NC(=O)[C@H](CCCNC(=N)N)NC(=O)[C@H](C)NC(=O)[C@H](C)NC(=O)[C@H](CC(C)C)NC(=O)[C@H](C)NC(=O)[C@H](CC(=O)O)NC(=O)[C@H](CC(C)C)NC(=O)[C@@H](NC(=O)[C@@H](NC(=O)[C@H](C)NC(=O)[C@H](CC(C)C)NC(=O)[C@H](CCC(=O)O)NC(=O)[C@H](CO)NC(=O)[C@H](CO)NC(=O)[C@H](Cc1ccccc1)NC(=O)[C@@H](NC(=O)CNC(=O)[C@H](CCC(=O)O)NC(=O)CNC(=O)[C@@H](N)Cc1cnc[nH]1)[C@@H](C)O)[C@@H](C)O)[C@@H](C)CC)[C@@H](C)CC)C(=O)N[C@@H](C)C(=O)N[C@H](C(=O)N[C@@H](CCCCN)C(=O)N[C@H](C(=O)N[C@H](C(=O)N[C@@H](CC(=O)O)C(=O)N[C@@H](CCCCN)C(=O)N[C@@H](CCCCN)C(=O)N[C@@H](CCCCN)C(=O)N[C@@H](CCCCN)C(=O)N[C@@H](CCCCN)C(=O)N[C@@H](CCCCN)C(N)=O)[C@@H](C)O)[C@@H](C)CC)[C@@H](C)O,immunoaffinity LC-MS/MS,"healthy human subjects, plasma","intravenous infusion, 1 mg, 15 min infusion",54.9 nM
CN[C@@H](CCOc1cccc2ccccc12)c1ccccc1,,"healthy male humans, plasma","oral, 60 mg of dapoxetine",14.2 ± 7.05 ng/mL
CC[C@H](C)[C@H](NC(=O)[C@H](CC(C)C)NC(=O)[C@H](Cc1c[nH]c2ccccc12)NC(=O)[C@H](C)NC(=O)[C@@H](NC(=O)[C@H](Cc1ccccc1)NC(=O)[C@H](CC(=O)O)NC(=O)[C@H](CCCNC(=N)N)NC(=O)[C@H](C)NC(=O)[C@H](C)NC(=O)[C@H](CC(C)C)NC(=O)[C@H](C)NC(=O)[C@H](CC(=O)O)NC(=O)[C@H](CC(C)C)NC(=O)[C@@H](NC(=O)[C@@H](NC(=O)[C@H](C)NC(=O)[C@H](CC(C)C)NC(=O)[C@H](CCC(=O)O)NC(=O)[C@H](CO)NC(=O)[C@H](CO)NC(=O)[C@H](Cc1ccccc1)NC(=O)[C@@H](NC(=O)CNC(=O)[C@H](CCC(=O)O)NC(=O)CNC(=O)[C@@H](N)Cc1c[nH]cn1)[C@@H](C)O)[C@@H](C)O)[C@@H](C)CC)[C@@H](C)CC)C(=O)N[C@@H](C)C(=O)N[C@H](C(=O)N[C@@H](CCCCN)C(=O)N[C@H](C(=O)N[C@H](C(=O)N[C@@H](CC(=O)O)C(=O)N[C@@H](CCCCN)C(=O)N[C@@H](CCCCN)C(=O)O)[C@@H](C)O)[C@@H](C)CC)[C@@H](C)O,immunoaffinity LC-MS/MS,"healthy human subjects, plasma","subcutaneous, 10 mg once weekly, day 36 after 6 doses, steady state, geometric mean",0.716 nM
Cn1c(=O)oc2ccc(-c3ccc(CC(C#N)NC(=O)C4CNCCCO4)c(F)c3)cc21 (stereo not shown),,"human, fed, plasma","40 mg single dose, geometric mean",162 ng/mL
CC(C)[C@H](NC(=O)CNC(=O)[C@H](CCC(N)=O)NC(=O)[C@H](C)N)C(=O)O,LC-MS/MS,"human, male, plasma","intravenous, 30 mg/kg three times daily, day 3, first dose, 10 min infusion, geometric mean",5100 ng/mL

# For quick reference, copied from above:
Compound,assay,system,setting,Cmax
Cc1nc(C)c(C=[N+]([O-])C(C)(C)C)nc1C,,"healthy human, both sexes, serum","oral, 1200 mg twice daily, 7 days",25300 ng/mL
CCCCCCCCCC(O)CC(=O)CCc1ccc(O)c(OC)c1 (stereo not shown),,"healthy Indonesian humans, plasma","oral, 2 g red ginger suspension, single dose",160 ng/mL
